Measurements of several laboratories.
Compare with care: the assays were run in different laboratories. Several values in a cell are separate wells, animals, samples, runs or records. ± gives the spread as reported.
FYN G534I/P533E/Q532E: Tyrosine-protein kinase Fyn (FYN, Homo sapiens, UniProt P06241, G534I/P533E/Q532E)
folA: Dihydrofolate reductase (folA, Mycobacterium tuberculosis, UniProt P9WNX1)
inhA: Enoyl-[acyl-carrier-protein] reductase [NADH] (inhA, Mycobacterium tuberculosis, UniProt P9WGR1)

Sequences of proteins named here, by UniProt entry; tags and fusion partners are left off. A change or cut given only in a name is not applied to a line headed by its entry.
UniProt P06241, whole entry, looked up: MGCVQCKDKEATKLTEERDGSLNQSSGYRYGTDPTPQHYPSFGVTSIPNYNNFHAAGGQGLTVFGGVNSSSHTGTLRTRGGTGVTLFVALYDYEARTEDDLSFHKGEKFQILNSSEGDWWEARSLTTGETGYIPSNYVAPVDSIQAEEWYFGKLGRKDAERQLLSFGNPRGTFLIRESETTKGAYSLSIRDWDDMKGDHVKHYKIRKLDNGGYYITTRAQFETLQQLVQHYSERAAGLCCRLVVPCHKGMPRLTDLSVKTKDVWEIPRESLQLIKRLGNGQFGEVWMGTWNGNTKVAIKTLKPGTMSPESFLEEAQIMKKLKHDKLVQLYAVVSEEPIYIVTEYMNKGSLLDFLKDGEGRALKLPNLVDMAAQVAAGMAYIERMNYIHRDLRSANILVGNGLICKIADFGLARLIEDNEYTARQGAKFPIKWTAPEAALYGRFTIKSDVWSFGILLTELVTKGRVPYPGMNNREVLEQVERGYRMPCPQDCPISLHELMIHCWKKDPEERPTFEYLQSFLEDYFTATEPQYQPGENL
UniProt P9WNX1, whole entry: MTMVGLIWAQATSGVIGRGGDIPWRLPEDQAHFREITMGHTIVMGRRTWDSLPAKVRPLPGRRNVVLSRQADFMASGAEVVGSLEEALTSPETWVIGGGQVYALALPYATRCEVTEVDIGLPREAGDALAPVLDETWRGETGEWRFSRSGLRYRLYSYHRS
UniProt P9WGR1, whole entry: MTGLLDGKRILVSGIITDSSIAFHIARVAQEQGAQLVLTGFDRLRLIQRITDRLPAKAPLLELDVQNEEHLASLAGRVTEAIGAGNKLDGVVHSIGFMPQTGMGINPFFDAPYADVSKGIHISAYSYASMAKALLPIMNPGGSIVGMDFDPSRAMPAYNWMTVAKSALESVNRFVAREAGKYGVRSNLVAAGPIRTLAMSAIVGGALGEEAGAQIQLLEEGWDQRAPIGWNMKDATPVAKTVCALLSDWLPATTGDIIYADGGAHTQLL
UniProt I6WXK4, whole entry: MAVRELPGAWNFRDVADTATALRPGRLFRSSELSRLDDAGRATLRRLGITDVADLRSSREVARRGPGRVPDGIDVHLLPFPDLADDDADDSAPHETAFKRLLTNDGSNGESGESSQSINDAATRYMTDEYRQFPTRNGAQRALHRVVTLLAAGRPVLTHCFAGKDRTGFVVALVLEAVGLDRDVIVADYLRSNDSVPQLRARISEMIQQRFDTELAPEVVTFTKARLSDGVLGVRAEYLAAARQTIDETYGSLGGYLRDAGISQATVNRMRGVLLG
UniProt P41143, whole entry: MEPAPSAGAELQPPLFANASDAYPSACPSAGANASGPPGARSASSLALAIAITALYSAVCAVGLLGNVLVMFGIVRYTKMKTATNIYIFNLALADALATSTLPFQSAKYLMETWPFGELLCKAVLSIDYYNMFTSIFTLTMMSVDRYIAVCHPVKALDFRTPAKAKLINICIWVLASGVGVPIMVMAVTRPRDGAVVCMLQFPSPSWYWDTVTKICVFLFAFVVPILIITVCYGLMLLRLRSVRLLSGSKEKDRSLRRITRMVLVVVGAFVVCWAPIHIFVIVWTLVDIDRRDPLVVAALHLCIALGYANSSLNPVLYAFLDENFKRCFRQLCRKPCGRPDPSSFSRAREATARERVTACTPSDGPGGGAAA
UniProt P22303, whole entry, looked up: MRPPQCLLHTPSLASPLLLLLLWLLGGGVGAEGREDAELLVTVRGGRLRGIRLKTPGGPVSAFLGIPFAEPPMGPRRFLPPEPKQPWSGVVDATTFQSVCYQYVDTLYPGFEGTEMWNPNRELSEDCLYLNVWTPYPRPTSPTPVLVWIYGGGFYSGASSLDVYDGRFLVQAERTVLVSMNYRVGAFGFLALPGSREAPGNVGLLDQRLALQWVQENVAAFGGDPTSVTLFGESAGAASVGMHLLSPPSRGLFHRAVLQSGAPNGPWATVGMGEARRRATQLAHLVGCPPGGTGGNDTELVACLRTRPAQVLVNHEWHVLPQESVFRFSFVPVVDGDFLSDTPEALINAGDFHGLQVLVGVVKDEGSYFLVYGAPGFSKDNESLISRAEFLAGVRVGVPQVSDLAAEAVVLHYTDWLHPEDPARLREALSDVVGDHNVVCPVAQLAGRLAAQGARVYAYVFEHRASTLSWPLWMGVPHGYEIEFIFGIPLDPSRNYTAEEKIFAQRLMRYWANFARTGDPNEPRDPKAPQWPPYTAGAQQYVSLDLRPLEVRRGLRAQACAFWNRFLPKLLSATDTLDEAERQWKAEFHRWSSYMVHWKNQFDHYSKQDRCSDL
UniProt P28223, whole entry: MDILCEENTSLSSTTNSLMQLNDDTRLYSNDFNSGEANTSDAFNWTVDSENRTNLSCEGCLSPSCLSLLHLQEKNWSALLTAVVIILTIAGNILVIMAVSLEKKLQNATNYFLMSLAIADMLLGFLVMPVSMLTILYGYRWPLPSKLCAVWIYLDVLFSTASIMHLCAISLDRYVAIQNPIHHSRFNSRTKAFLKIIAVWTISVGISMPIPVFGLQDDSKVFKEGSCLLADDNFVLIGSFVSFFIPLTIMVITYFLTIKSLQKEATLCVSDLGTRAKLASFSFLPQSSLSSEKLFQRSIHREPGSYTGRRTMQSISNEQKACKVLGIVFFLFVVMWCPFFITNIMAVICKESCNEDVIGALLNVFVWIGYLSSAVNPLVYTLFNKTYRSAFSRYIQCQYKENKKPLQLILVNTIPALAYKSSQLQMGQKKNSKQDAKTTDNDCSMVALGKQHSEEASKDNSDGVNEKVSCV

Compound | target | test | test system | setting | Ki
O=C(O)c1cc2cc(Cl)cc(OCc3cn(CCC(=O)N4CCC(c5ccc(Cl)c(Cl)c5)CC4)nn3)c2c(Cl)c1OCc1cn(CCC(=O)N2CCC(c3ccc(Cl)c(Cl)c3)CC2)nn1 | Triple specificity protein phosphatase PtpB (ptpB, Mycobacterium tuberculosis, UniProt I6WXK4) | inhibitor | – | – | 0.16 µM and 0.162 µM
Nc1ncnc2c1c(-c1cnc3[nH]ccc3c1)nn2C1CCCC1 | FYN G534I/P533E/Q532E | inhibitor | – | – | 0.26 µM
CN1CC[C@]23c4c5ccc(O)c4O[C@H]2c2ncc(-c4ccc(Cl)cc4)cc2C[C@@]3(OCCCc2ccccc2)[C@H]1C5 | Delta-type opioid receptor (OPRD1, Homo sapiens, UniProt P41143) | binding | CHO membranes | – | 0.0051 ± 0.0016 µM
CN(Cc1cnc2nc(N)nc(N)c2n1)c1ccc(C(=O)N[C@@H](CCC(=O)NCCO)C(=O)NCCO)cc1 | folA | – | – | – | 0.0988 ± 0.0182 µM
c1cc[n+](CCCCCCCCCC[n+]2cccc3ccccc32)cc1 | Acetylcholinesterase (ACHE, Homo sapiens, UniProt P22303) | enzyme activity, inhibitor | – | – | 0.4 µM
N#Cc1ccccc1Oc1ccc(Cn2cc(C3CC3)nn2)cc1O | inhA | enzyme activity, slow-onset inhibitor | – | 20 °C, final EI* complex | 0.37 ± 0.01 µM
CC(C)n1nc(-c2ccc3cc(OCc4ccccc4)ccc3c2)c2c(N)ncnc21 | Tyrosine-protein kinase Fyn (FYN, Homo sapiens, UniProt P06241, G531I/P530I/Q529E) | inhibitor | – | – | 0.024 µM
Oc1cc(Cn2cc(C3CC3)nn2)ccc1Oc1ccccc1Cl | inhA | enzyme activity, slow-onset inhibitor | – | 20 °C, initial EI complex | 16 ± 10 µM
CC(C)n1nc(-c2ccc3c(c2)OCO3)c2c(N)ncnc21 | FYN G534I/P533E/Q532E | inhibitor | – | – | 5.2 µM
N#Cc1ccccc1Oc1ccc(Cn2cc(C3CCCC3)nn2)cc1O | inhA | enzyme activity, slow-onset inhibitor | – | 20 °C, final EI* complex | 0.35 ± 0.07 µM
CCOC(=O)CC[C@H](NC(=O)c1ccc(N(C)Cc2cnc3nc(N)nc(N)c3n2)cc1)C(=O)OCC | folA | – | – | – | 0.0122 ± 0.00015 µM
Cc1ccccc1Oc1ccc(Cn2cc(C3CC3)nn2)cc1O | inhA | enzyme activity, slow-onset inhibitor | – | 20 °C, initial EI complex | 17 ± 3 µM
Cc1ccc(C(=O)C(C)N2CCCC2)cc1 (racemic) | 5-hydroxytryptamine receptor 2A (HTR2A, Homo sapiens, UniProt P28223) | – | – | added: [3H]ketanserin | 3.2 µM and < 3.5 µM
